# Assay results collected from several papers.
# Parts stem from different laboratories: compare values within a part only. “And” joins repeats or separate records; there may be more than shown.
# UniProt Q00526, sequence (whole entry, looked up): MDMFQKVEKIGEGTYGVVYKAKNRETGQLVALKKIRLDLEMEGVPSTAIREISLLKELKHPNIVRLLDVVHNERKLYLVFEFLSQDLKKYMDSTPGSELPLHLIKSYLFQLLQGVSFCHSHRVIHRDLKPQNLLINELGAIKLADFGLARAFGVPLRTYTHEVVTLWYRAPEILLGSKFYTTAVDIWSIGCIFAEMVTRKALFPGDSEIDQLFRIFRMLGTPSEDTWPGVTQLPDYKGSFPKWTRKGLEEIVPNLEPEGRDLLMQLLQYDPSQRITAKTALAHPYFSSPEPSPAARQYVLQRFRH
# UniProt P00519, sequence (whole entry, unmodified, looked up): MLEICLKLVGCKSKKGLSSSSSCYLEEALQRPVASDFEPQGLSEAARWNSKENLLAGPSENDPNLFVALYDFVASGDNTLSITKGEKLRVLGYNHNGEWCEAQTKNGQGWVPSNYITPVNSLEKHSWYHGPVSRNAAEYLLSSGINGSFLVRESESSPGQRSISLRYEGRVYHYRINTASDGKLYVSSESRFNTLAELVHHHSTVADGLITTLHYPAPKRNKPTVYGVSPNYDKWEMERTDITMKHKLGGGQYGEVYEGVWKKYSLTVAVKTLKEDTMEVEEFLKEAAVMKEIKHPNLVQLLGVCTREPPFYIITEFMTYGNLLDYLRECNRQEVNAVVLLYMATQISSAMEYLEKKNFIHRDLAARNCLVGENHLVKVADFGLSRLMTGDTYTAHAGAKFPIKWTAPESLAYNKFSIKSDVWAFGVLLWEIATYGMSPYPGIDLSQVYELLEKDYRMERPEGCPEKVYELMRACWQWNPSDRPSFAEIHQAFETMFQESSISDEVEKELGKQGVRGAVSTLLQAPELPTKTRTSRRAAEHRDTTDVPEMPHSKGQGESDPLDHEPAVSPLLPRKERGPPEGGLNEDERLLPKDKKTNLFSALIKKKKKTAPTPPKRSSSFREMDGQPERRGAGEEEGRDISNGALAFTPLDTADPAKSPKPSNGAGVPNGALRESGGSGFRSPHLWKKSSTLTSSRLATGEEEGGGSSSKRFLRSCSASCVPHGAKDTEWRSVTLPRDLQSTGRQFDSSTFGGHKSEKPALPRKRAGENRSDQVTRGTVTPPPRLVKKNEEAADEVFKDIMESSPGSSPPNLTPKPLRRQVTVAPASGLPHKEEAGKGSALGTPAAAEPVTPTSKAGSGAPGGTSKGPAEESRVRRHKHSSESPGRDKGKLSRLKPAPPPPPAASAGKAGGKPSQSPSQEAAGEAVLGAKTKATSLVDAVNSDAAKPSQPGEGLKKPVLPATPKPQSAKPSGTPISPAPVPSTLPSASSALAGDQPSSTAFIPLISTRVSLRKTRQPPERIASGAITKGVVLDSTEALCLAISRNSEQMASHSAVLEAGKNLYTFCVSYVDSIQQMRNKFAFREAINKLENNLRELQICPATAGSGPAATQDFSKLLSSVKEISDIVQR
# UniProt Q16539, sequence (whole entry, looked up): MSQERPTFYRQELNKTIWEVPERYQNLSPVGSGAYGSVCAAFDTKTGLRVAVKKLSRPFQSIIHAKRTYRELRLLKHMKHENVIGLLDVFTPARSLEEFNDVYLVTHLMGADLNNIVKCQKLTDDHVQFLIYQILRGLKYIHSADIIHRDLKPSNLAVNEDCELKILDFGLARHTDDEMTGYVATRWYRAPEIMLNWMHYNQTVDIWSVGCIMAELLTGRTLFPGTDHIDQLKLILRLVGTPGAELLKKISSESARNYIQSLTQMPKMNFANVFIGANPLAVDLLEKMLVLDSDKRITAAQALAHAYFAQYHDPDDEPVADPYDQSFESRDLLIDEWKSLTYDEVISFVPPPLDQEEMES
# UniProt Q04759, sequence (whole entry, looked up): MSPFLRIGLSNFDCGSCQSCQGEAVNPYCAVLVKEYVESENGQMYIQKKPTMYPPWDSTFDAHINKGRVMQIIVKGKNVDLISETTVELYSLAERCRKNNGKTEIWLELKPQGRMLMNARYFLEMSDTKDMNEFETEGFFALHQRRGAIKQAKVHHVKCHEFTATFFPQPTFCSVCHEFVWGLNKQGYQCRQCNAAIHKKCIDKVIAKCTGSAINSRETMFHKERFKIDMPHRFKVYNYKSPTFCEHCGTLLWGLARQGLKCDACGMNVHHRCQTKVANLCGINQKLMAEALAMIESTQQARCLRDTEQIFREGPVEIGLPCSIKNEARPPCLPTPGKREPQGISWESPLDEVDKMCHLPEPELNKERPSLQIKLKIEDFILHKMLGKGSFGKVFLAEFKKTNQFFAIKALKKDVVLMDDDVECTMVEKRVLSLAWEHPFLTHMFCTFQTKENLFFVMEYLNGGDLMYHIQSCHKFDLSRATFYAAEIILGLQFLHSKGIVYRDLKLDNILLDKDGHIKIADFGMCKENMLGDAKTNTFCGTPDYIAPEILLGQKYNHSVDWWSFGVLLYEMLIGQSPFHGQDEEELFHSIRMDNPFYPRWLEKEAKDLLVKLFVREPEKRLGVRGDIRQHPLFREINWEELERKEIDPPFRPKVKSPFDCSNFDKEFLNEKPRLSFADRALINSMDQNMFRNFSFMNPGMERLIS
# UniProt P32298, sequence (whole entry, looked up): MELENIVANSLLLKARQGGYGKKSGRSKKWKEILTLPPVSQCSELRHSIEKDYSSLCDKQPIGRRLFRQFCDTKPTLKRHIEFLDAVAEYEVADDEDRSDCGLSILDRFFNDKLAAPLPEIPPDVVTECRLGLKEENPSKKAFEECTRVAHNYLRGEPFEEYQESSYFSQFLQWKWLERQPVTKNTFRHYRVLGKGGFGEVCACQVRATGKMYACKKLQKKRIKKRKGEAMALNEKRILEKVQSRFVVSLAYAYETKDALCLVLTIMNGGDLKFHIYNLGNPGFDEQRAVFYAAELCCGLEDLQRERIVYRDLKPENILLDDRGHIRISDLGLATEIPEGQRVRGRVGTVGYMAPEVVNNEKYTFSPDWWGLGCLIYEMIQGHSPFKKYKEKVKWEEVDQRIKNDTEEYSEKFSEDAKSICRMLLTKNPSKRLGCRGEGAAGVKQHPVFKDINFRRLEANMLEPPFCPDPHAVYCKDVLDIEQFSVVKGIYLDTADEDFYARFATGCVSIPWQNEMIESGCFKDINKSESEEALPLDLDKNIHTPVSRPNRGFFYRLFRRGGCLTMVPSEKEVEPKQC
# UniProt P37173, sequence (whole entry, looked up): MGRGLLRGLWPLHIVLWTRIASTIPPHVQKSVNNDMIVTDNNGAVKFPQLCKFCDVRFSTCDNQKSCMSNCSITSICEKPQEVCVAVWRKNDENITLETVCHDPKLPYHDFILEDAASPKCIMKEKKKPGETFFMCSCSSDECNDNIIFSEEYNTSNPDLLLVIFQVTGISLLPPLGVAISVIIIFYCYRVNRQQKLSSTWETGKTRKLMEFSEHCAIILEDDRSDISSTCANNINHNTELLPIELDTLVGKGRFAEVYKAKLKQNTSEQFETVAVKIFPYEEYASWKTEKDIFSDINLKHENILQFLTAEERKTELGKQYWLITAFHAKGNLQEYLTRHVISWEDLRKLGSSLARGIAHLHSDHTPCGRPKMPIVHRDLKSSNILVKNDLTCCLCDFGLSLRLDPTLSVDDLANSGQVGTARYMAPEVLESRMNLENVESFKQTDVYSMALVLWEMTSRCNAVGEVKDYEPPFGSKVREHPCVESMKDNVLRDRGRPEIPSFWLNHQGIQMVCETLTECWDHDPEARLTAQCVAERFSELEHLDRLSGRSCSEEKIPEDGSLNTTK

# Sample 1
# SMILES: CC#CC(=O)N1CCC[C@H]1c1nc(-c2ccc(C(=O)Nc3ccccn3)cc2)c2c(N)nccn12
# Effect on: enzyme activity
# Action: inhibitor
# Tested at: 1 µM
target,inhibition
"ERBB2 (Homo sapiens, UniProt P04626)",94%
"TSSK3 (Homo sapiens, UniProt Q96PN8)",3%
"PKMYT1 (Homo sapiens, UniProt Q99640)",13%
"PRKCQ (Homo sapiens, UniProt Q04759)",0%
"NEK6 (Homo sapiens, UniProt Q9HC98)",8%

# Sample 2
# SMILES: CCC(=N\O)/C(C)=C/c1ccc(F)cc1
# Tested at: 1 µM
target,effect on,method,setting,reference,remaining binding [%]
"TGFBR2 (Homo sapiens, UniProt P37173)",cell-free assay,competition with immobilised ligand,,,74
"ABL1 (Homo sapiens, UniProt P00519, F317I)",,KINOMEscan,"F317I mutant, nonphosphorylated",control,100
"CDK3 (Homo sapiens, UniProt Q00526)",cell-free assay,competition with immobilised ligand,,,84
"GRK4 (Homo sapiens, UniProt P32298)",cell-free assay,competition with immobilised ligand,,,100
"Tyrosine-protein kinase ABL1, phosphorylated (ABL1, Homo sapiens, UniProt P00519, F317I)",cell-free assay,competition with immobilised ligand,,,77
"MAPK14 (Homo sapiens, UniProt Q16539)",cell-free assay,competition with immobilised ligand,,,100
"TAOK2 (Homo sapiens, UniProt Q9UL54)",cell-free assay,competition with immobilised ligand,,,94
"TLK1 (Homo sapiens, UniProt Q9UKI8)",cell-free assay,competition with immobilised ligand,,,100

# Sample 3
# Cell line: mouse MPNST tumor cells
# Method: high-content nuclear imaging
# Item: cell number
# Tested at: 10 µM
# Time: 12 h
# Setting: mean of 2 replicates
# Reference: plate mean
# Direction: higher = more cells
SMILES,nuclei count
COc1ccc(CCc2nc3cc(-c4c(C)noc4C)ccc3n2C[C@H](C)N2CCOCC2)cc1Cl,0.0867 z-score and 1.59 z-score
Cc1ccc(C)c(Oc2ccncc2C(=O)N2CCN(C3CC3)c3ccccc32)c1,0.542 z-score
CO/N=C(\C(=O)N[C@@H]1C(=O)N2C(C(=O)O)=C(COC(C)=O)CS[C@H]12)c1csc(N)n1,0.448 z-score
NNC(=O)CSc1nc2scc(-c3ccccc3)c2c(=O)n1-c1ccccc1,0.856 z-score

# Sample 4
# Target: Cyclin-dependent kinase 3, with cyclin E (CDK3, Homo sapiens, UniProt Q00526)
# Effect on: enzyme activity
# Action: inhibitor
# Tested at: 0.5 µM
# Reference: control
Compound,remaining activity [%]
Cn1sc(=O)n(Cc2ccccc2)c1=O,78.1
CNC(=O)c1cc(Oc2ccc(NC(=O)Nc3ccc(Cl)c(C(F)(F)F)c3)cc2)ccn1,96.5
COc1ccc(OC)c2c(=S)c3ccccc3[nH]c12,87.7
Nc1ncnc2n[nH]c(Nc3ccc(F)cc3)c12,104
OCC(O)CCON=C1C(c2c(O)[nH]c3ccccc23)=Nc2ccccc21 (stereo not drawn),65.2
COc1cc2ncnc(Nc3ccc(F)c(Cl)c3)c2cc1OCCCN1CCOCC1,95
O=C(CCCc1ccc(-c2ccccc2F)cc1)Nc1ccc(O)cc1,92.6
O=c1c2ccccc2[nH]c(=S)n1CCN1CCC(=C(c2ccc(F)cc2)c2ccc(F)cc2)CC1,100
Oc1ccc(-c2nc(-c3ccncc3)c(-c3ccc(F)cc3)[nH]2)cc1,96.7
Cn1c2ccccc2c2c3c(c4c5ccccc5n(CCC#N)c4c21)CNC3=O,65.2
O=S(=O)(c1cccc2cnccc12)N1CCCNCC1,76.6
CO[C@H]1C[C@@H]2CC[C@@H](C)[C@@](O)(O2)C(=O)C(=O)N2CCCC[C@H]2C(=O)O[C@H]([C@H](C)C[C@@H]2CC[C@@H](O)[C@H](OC)C2)CC(=O)[C@H](C)/C=C(\C)[C@@H](O)[C@@H](OC)C(=O)[C@H](C)C[C@H](C)/C=C/C=C/C=C/1C,102
COc1ccc(CNC(=O)Nc2ncc([N+](=O)[O-])s2)cc1,94.8
N#CC(C#N)=C(N)/C(C#N)=C/c1ccc(O)cc1,96.8
Nc1ccc2ncnc(NCCc3ccc(Oc4ccccc4)cc3)c2c1,94.8
O=C1NC(=O)C(c2cn(CCCn3ccnc3)c3ccccc23)=C1Nc1ccccc1,90.9

# A few entries again (sample 2):
target,effect on,method,setting,reference,remaining binding [%]
"TLK1 (Homo sapiens, UniProt Q9UKI8)",cell-free assay,competition with immobilised ligand,,,100
"TAOK2 (Homo sapiens, UniProt Q9UL54)",cell-free assay,competition with immobilised ligand,,,94
"GRK4 (Homo sapiens, UniProt P32298)",cell-free assay,competition with immobilised ligand,,,100
